Measurements pooled from the literature.
Numbers after ± are the reported error.
Cell line: HCT-116

SMILES = O=c1ccn(Cc2cn(-c3c4ccccc4nc4ccccc34)nn2)c(=O)[nH]1; test = NCI60 single-dose screen; conditions = 10 µM; quantity = growth percentage; result = 92.4%
SMILES = NC(=O)NO; test = cell growth, live-cell imaging; conditions = 150 µM, control at 90% confluence; quantity = cell confluence; result = 48.6 ± 9.11%
SMILES = CCOc1ccc(-c2nc3cc(-c4nc5cc(N6CCN(C)CC6)ccc5[nH]4)ccc3[nH]2)cc1OCC; test = SRB; conditions = 10 µM, 48 h; quantity = growth percent; result = -3.06%
SMILES = O=C(Nc1nnc2n3c(nc(-c4ccc(Cl)cc4)c1-2)SCC3=O)c1ccccc1; test = SRB; conditions = 10 µM, NCI60 single-dose screen, colon cancer; how to read = relative to: untreated; quantity = cell growth; result = 98.8%
SMILES = NC(=O)NOCCCCCCCCCCCC[P+](c1ccccc1)(c1ccccc1)c1ccccc1.O=C([O-])C(F)(F)F; test = cell growth, live-cell imaging; conditions = 5 µM, control at 90% confluence; quantity = cell confluence; result = 3.1 ± 0.62%
SMILES = O=C(Nc1nnc2n3c(=S)[nH][nH]c3nc(-c3ccc(Cl)cc3)c1-2)c1ccccc1; test = SRB; conditions = 10 µM, NCI60 single-dose screen, colon cancer; how to read = relative to: untreated; quantity = cell growth; result = 92.7%
SMILES = CCN1C(=O)C(C)SC1=NN=C(C)c1c(O)c2ccccc2oc1=O (stereo not drawn); test = cell growth, MTT; how to read = relative to: IC50 BJ-1 over HCT-116; quantity = selectivity index; result = > 2.23
SMILES = O=P1(C2CCCCC2)CCCCC1; test = ELISA; conditions = IC50, 72 h; quantity = IL-6 level; result = 4 ± 0.36 pg/mL
SMILES = CCCCN1CCN(c2ccc3nc(-c4ccc5nc(-c6cc(OC)ccc6OC)[nH]c5c4)[nH]c3c2)CC1; test = SRB; conditions = 10 µM, 48 h; quantity = growth percent; result = 97%
SMILES = CCn1cc(-c2cc(Cn3ccnc3)cc3c2CCN([C@H](c2cc(OC)ccn2)C2CC2)C3=O)c(C(F)(F)F)n1; test = cell growth, inhibitor; conditions = 120 h; quantity = EC50; result = > 30 µM
SMILES = Cc1nc2ccc(Br)cc2c(=O)n1/N=C/c1ccc(C(=O)O)cc1; test = cytotoxicity, LDH release; conditions = 24 h, 50% viability reduction; quantity = IC50; result = 572 ± 14.7 µM
SMILES = Cc1cc(=O)[nH]c(=O)n1Cc1cn(-c2cc3ccccc3oc2=O)nn1; test = NCI60 single-dose screen; conditions = 10 µM; quantity = growth percentage; result = 98.4%
SMILES = NNc1nc(-c2ccc(Cl)cc2)c2c(NC(=O)c3ccccc3)nnc-2[nH]1; test = SRB; conditions = 10 µM, NCI60 single-dose screen, colon cancer; how to read = relative to: untreated; quantity = cell growth; result = 98.8%
SMILES = CS(=O)(=O)c1ccc2nc(-c3ccccc3)c(Nc3ccc(C(=O)O)cc3)n2c1; test = cell viability; conditions = 72 h, together with: camptothecin; how to read = direction not given; quantity = synergy score; result = 9.5
SMILES = COc1nc(NCc2cn(-c3ccc(C(=O)Nc4ccccc4)cc3)nn2)nc(OC)n1; test = flow cytometry; conditions = IC50, 24 h; quantity = cell cycle phase %G2-M; result = 3.57%
SMILES = O=C(Nc1nnc2n3c(Cc4ccccc4)n[nH]c3nc(-c3ccc(Cl)cc3)c1-2)c1ccccc1; test = SRB; conditions = 10 µM, NCI60 single-dose screen, colon cancer; how to read = relative to: untreated; quantity = cell growth; result = 94.8%
SMILES = COc1cccc2c1C(=O)c1c(O)c3c(c(O)c1C2=O)C[C@@](O)(C(=O)CO)C[C@@H]3O[C@H]1C[C@H](N)[C@H](O)[C@H](C)O1; test = flow cytometry; conditions = 3.66 µM (IC50), 72 h; quantity = cells in S phase; result = 28.9%
SMILES = CCCCN1CCN(c2ccc3[nH]c(-c4ccc5[nH]c(-c6ccc(C(F)(F)F)cc6)nc5c4)nc3c2)CC1; test = SRB; conditions = 10 µM, 48 h; quantity = growth percent; result = -70.7%
SMILES = NC(=O)NOCCCC[P+](c1ccccc1)(c1ccccc1)c1ccccc1.O=C([O-])C(F)(F)F; test = cell growth, live-cell imaging; conditions = 100 µM, control at 90% confluence; quantity = cell confluence; result = 92.4%
SMILES = Cc1cc(=O)[nH]c(=O)n1Cc1cn(-c2c3ccccc3nc3ccccc23)nn1; test = NCI60 single-dose screen; conditions = 10 µM; quantity = growth percentage; result = 63.1%
SMILES = COc1nc(NCc2cn(-c3ccc(C(=O)Nc4ccc(C(F)(F)F)cc4)cc3)nn2)nc(OC)n1; test = flow cytometry; conditions = IC50, 24 h; quantity = cell cycle phase %G2-M; result = 10.2%
SMILES = O=[N+]([O-])c1cc(I)c(O)c(C=NNc2ccccc2)c1; test = Muse cell cycle; conditions = IC50, 24 h; quantity = cells in S phase; result = 12.5%
SMILES = NC(=O)NOCCCCCCCCCC[P+](c1ccccc1)(c1ccccc1)c1ccccc1.O=C([O-])C(F)(F)F; test = cell growth, live-cell imaging; conditions = 0.1 µM, control at 90% confluence; quantity = cell confluence; result = 82.1%
SMILES = Cn1ncc2c(NC(P(=O)(O)O)P(=O)(O)O)nc(-c3cccc(C(=O)Nc4ccc(C(F)(F)F)cc4)c3)nc21; test = Rap1A prenylation, inhibitor, Western blot; quantity = lowest effective concentration; result = ≤ 100 nM
SMILES = NC(=O)NOCCCCCCCCCCCCCCCC[P+](c1ccccc1)(c1ccccc1)c1ccccc1.O=C([O-])C(F)(F)F; test = cell growth, live-cell imaging; conditions = 0.1 µM, control at 90% confluence; quantity = cell confluence; result = 89.3%
SMILES = CCCN1CCN(c2ccc3[nH]c(-c4ccc5[nH]c(-c6ccc(OCC)c(OCC)c6)nc5c4)nc3c2)CC1; test = SRB; conditions = 10 µM, 48 h; quantity = growth percent; result = -83.4%
SMILES = O=[N+]([O-])c1cc(Br)c(O)c(C=NNc2ccc(C(F)(F)F)cc2)c1; test = annexin V; conditions = IC50; quantity = early apoptotic cells; result = 10.8%
SMILES = Cn1cnc2c(F)c(Nc3ccc(Br)cc3F)c(C(=O)NOCCO)cc21; conditions = 5 µM, 72 h; quantity = viability; result = 26.4%
SMILES = O=[N+]([O-])c1ccc(O)c(C=NNc2ccc(Br)cc2)c1; test = Muse cell cycle; conditions = IC50, 24 h; quantity = cells in S phase; result = 19%
SMILES = NC(=O)NOCCCCCCCCCCCCCC[P+](c1ccccc1)(c1ccccc1)c1ccccc1.O=C([O-])C(F)(F)F; test = cell growth, live-cell imaging; conditions = 0.75 µM, control at 90% confluence; quantity = cell confluence; result = 51.6%
SMILES = CC(=NN=c1scc(C)n1C)c1c(O)c2ccccc2oc1=O; test = cell growth, MTT; how to read = relative to: IC50 BJ-1 over HCT-116; quantity = selectivity index; result = > 3.68
SMILES = CCN(CC)c1ccc(C=NNC(=O)CSc2nc3ccccc3c(=O)n2Cc2ccc(S(N)(=O)=O)cc2)c(O)c1; test = NCI five-dose screen; quantity = TGI; result = > 100 µM
SMILES = CNC(=S)NN=C(C)c1c(O)c2ccccc2oc1=O; test = cell growth, MTT; how to read = relative to: IC50 BJ-1 over HCT-116; quantity = selectivity index; result = > 13.9
SMILES = COc1cccc2c1C(=O)c1c(O)c3c(c(O)c1C2=O)C[C@@](O)(C(=O)CO)C[C@@H]3O[C@H]1C[C@H](N)[C@H](O)[C@H](C)O1; test = WST-1; conditions = concentration not given, 72 h, highest tested concentration; quantity = maximal cytotoxicity; result = 99.3%
SMILES = CC(=O)c1sc(=NN=C(C)c2c(O)c3ccccc3oc2=O)[nH]c1C; test = cell growth, MTT; how to read = relative to: IC50 BJ-1 over HCT-116; quantity = selectivity index; result = > 3.18
SMILES = O=C(NOC[C@H](O)CO)c1ccc(F)c(F)c1Nc1ccc(I)cc1F; conditions = 0.625 µM, 72 h; quantity = viability; result = 32%

For quick reference, copied from above:
SMILES = O=[N+]([O-])c1ccc(O)c(C=NNc2ccc(Br)cc2)c1; test = Muse cell cycle; conditions = IC50, 24 h; quantity = cells in S phase; result = 19%
SMILES = NC(=O)NOCCCCCCCCCCCCCC[P+](c1ccccc1)(c1ccccc1)c1ccccc1.O=C([O-])C(F)(F)F; test = cell growth, live-cell imaging; conditions = 0.75 µM, control at 90% confluence; quantity = cell confluence; result = 51.6%
SMILES = CC(=NN=c1scc(C)n1C)c1c(O)c2ccccc2oc1=O; test = cell growth, MTT; how to read = relative to: IC50 BJ-1 over HCT-116; quantity = selectivity index; result = > 3.68
SMILES = CCN(CC)c1ccc(C=NNC(=O)CSc2nc3ccccc3c(=O)n2Cc2ccc(S(N)(=O)=O)cc2)c(O)c1; test = NCI five-dose screen; quantity = TGI; result = > 100 µM
SMILES = CNC(=S)NN=C(C)c1c(O)c2ccccc2oc1=O; test = cell growth, MTT; how to read = relative to: IC50 BJ-1 over HCT-116; quantity = selectivity index; result = > 13.9
